Measured values from different studies.
Compare with care: the assays were run in different laboratories.
Cell line: CAKI-1

The GI50 of CC/C=C\C/C=C\C/C=C\C/C=C\C/C=C\C/C=C\CCC(=O)Nc1ccn(C2OC(CO)C(O)C2(F)F)c(=O)n1 (stereo not shown) is reported as 0.0253 µM (cell growth or viability, SRB).
O=C(O)c1ccc([P+]([Au-][Cl])(c2ccccc2)c2ccccc2)cc1 has an IC50 of 19.2 µM (cell growth or viability, XTT).
For CC(Cc1ccc(Cl)cc1)=C(c1ccc(Cl)cc1)c1ccc(OCCN(C)C)cc1, the GI50 was 4.63 µM (cell growth or viability).
CC(=O)OC[C@H]1O[C@@H](Sc2sc(C(=O)c3ccc(C)cc3)c(N)c2-c2nc3ccccc3s2)[C@H](OC(C)=O)[C@@H](OC(C)=O)[C@H]1OC(C)=O has a growth of 58.5% (SRB; 10 µM, 48 h; baseline: untreated).
With COc1cc(CNC(=O)C[C@H](C)CCC=C(C)C)ccc1OCc1cn(-c2cccc(Cl)c2)nn1 the growth percent was 87.6% (SRB; 10 µM, 48 h).
COc1ccc(C2=Nn3c(NN=C4C(=O)N(C)c5ccc(Br)cc54)nnc3SC2)cc1 gave an inhibition of 33% (cell growth or viability, SRB; 10 µM).
With COc1cc(CNC(=O)C[C@H](C)CCC=C(C)C)ccc1OCc1cn(-c2ccccc2[N+](=O)[O-])nn1 the growth percent was 48.6% (SRB; 10 µM, 48 h).
For CC(=O)OC[C@H]1O[C@@H](Sc2sc(C(=O)c3ccc(Br)cc3)c(N)c2-c2nc3ccccc3s2)[C@H](OC(C)=O)[C@@H](OC(C)=O)[C@@H]1OC(C)=O, the growth was 85.5% (SRB; 10 µM, 48 h; baseline: untreated).
With COc1cc(CNC(=O)C[C@H](C)CCC=C(C)C)ccc1OCc1cn(-c2ccc([N+](=O)[O-])cc2)nn1 the growth percent was 72.1% (SRB; 10 µM, 48 h).
For CCC(=C(c1ccc(Cl)cc1)c1ccc(OCCCN(C)C)cc1)c1ccc(OC)cc1, the GI50 was 5.55 µM (cell growth or viability).
With O=C1Nc2ccccc2/C1=N\Nc1nnc2n1N=C(c1ccc(Cl)cc1)CS2 the inhibition was 13% (cell growth or viability, SRB; 10 µM).
The IC50 of O=C([O][Ti+2][O]C(=O)c1ccc([P+]([Au-][Cl])(c2ccccc2)c2ccccc2)cc1)c1ccc([P+]([Au-][Cl])(c2ccccc2)c2ccccc2)cc1.c1cc[cH-]c1.c1cc[cH-]c1 is reported as 10.3 µM (cell viability, XTT; 24 h).
For COc1cc(CNC(=O)C[C@H](C)CCC=C(C)C)ccc1OCc1cn(-c2cccc([N+](=O)[O-])c2)nn1, the growth percent was 69.5% (SRB; 10 µM, 48 h).

Some of these lines once more:
O=C(O)c1ccc([P+]([Au-][Cl])(c2ccccc2)c2ccccc2)cc1 has an IC50 of 19.2 µM (cell growth or viability, XTT).
For CC(Cc1ccc(Cl)cc1)=C(c1ccc(Cl)cc1)c1ccc(OCCN(C)C)cc1, the GI50 was 4.63 µM (cell growth or viability).
